Assay results gathered from unrelated publications.
Lines come from different studies, so protocols differ. ± marks the error that the study gave.
Chain of UniProt Q53GS9 (whole entry, looked up): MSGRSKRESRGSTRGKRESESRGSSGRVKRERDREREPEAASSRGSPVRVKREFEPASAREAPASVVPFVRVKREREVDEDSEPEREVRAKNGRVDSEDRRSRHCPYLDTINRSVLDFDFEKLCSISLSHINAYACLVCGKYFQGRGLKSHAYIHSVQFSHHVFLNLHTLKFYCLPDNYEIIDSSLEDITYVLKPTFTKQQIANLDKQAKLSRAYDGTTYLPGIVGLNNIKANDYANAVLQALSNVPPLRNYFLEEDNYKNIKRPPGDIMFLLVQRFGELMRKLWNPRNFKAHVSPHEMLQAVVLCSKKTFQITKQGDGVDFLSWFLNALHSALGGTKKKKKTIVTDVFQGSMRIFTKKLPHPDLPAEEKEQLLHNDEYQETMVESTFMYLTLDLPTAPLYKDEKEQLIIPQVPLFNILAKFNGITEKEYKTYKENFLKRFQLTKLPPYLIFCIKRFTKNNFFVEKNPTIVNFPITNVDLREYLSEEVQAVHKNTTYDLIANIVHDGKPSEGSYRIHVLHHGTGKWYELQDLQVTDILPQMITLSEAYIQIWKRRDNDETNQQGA

`CC[C@H](C)[C@H](NC(=O)[C@H](Cc1ccccc1)NC(=O)[C@H](CCC(=O)O)NC(=O)[C@H](CCCCNC(=O)COCCOCCNC(=O)COCCOCCNC(=O)CC[C@H](NC(=O)CCCCCCCCCCCCCCCCC(=O)O)C(=O)O)NC(=O)[C@H](C)NC(=O)[C@H](C)NC(=O)[C@H](CCC(N)=O)NC(=O)CNC(=O)[C@H](CCC(=O)O)NC(=O)[C@H](CC(C)C)NC(=O)[C@H](Cc1ccc(O)cc1)NC(=O)[C@H](CO)NC(=O)[C@H](CO)NC(=O)[C@@H](NC(=O)[C@H](CC(=O)O)NC(=O)[C@H](CO)NC(=O)[C@@H](NC(=O)[C@H](Cc1ccccc1)NC(=O)[C@@H](NC(=O)CNC(=O)[C@H](CCC(=O)O)NC(=O)C(C)(C)NC(=O)[C@@H](N)Cc1cnc[nH]1)[C@@H](C)O)[C@@H](C)O)C(C)C)C(=O)N[C@@H](C)C(=O)N[C@@H](Cc1c[nH]c2ccccc12)C(=O)N[C@@H](CC(C)C)C(=O)N[C@H](C(=O)N[C@@H](CCCNC(=N)N)C(=O)NCC(=O)N[C@@H](CCCNC(=N)N)C(=O)NCC(=O)O)C(C)C`: “QTcF change from baseline” -0.4 ms (12-lead Holter ECG; healthy humans; subcutaneous, 1.5 mg once weekly, 48 h, steady state; reference: placebo).
With `Cc1nc(-c2cnc(NC(C)C)n(C)c2=O)ccc1Oc1ccnc(-c2cnn(C)c2)c1` the Vz was 0.69 L/kg (rat (Sprague-Dawley, male), plasma; intravenous, 1 mg/kg).
Under “enthalpy of phase change”, `C[Si]1(C)O[Si](C)(C)O[Si](C)(C)O[Si](C)(C)O1` is recorded as 17.7 kcal/mol (air/water; concentration not given).
`CC(C)(C(=O)N1CCOc2c(C#N)cncc2C1)C(F)F`: “subjects with adverse event” 12.5% (refers to: upper abdominal pain; human; oral, 10 mg once daily, 14 days, multiple ascending dose).
For `O=C(O)CC1Oc2ccccc2NC1=O` (stereo not shown), the Kd was over 1 mM (Ubiquitin carboxyl-terminal hydrolase 39, ZnF-UBD domain (Homo sapiens, UniProt Q53GS9)).
`O=C(Nc1nc2cccc(-c3ccc(CN4CCS(=O)(=O)CC4)cc3)n2n1)C1CC1`: “treatment-emergent adverse events” 0% (refers to: regurgitation; rheumatoid arthritis patients; oral, 30 mg once daily, 4 weeks, any relatedness).
Under “cumulative urinary recovery”, `CC[C@@]1(O)C(=O)OCc2c1cc1n(c2=O)Cc2cc3c(CN(C)C)c(O)ccc3nc2-1` is recorded as 105 ± 16.7% (patients; intravenous, dose not given, 24 h, day 2).
For `NCCCC(=O)O`, “z-scored log2 fold change” read 0.0204 (binding, equilibrium dialysis LC-MS; 5 µM, thermostabilized A2AR-BRIL construct; reference: no-protein control, direction not given).
For `CCC[C@@H](C)[C@H]1COC(C)(C)[C@@H](c2ccc(-c3ccccc3)cc2)N1`, the logD was over 4.7 (shake-flask, 1-octanol/buffer; pH 7.4).
Under “patients with TEAE”, `Cc1cc(NC2CCN(C(=O)OC3CCN(C(=O)/C=C/CN(C)C)C3)CC2)n2ncc(C(C)C)c2n1` (stereo not shown) is recorded as 0% (CTCAE v4.0, refers to: Arthralgia; patients with advanced solid tumours; oral, dose not given, TIW, grade 3 or higher).
`O=C(O)CCN1C(=O)CSC1=S` gave a cumulative permeation of 29.9 ± 1.49% (excised Bama miniature pig skin; 10 mM, 24 h, Franz cell, 30% ethanol saline).
`CC[C@H](C)CCCCC(=O)N[C@@H](CCN)C(=O)N[C@H](C(=O)N[C@@H](CCN)C(=O)N[C@H]1CCNC(=O)[C@H]([C@@H](C)O)NC(=O)[C@H](CCN)NC(=O)[C@H](CCN)NC(=O)[C@H](CC(C)C)NC(=O)[C@@H](Cc2ccccc2)NC(=O)[C@H](CCN)NC1=O)[C@@H](C)O` — result for “cumulative urinary excretion”: 0.884 mg (normal renal function subjects, urine; IV, 0.75 mg/kg, 0-24 h, arithmetic mean).
`OC[C@H]1O[C@@H](n2cnc3c(O)nc(O)nc32)[C@H](O)[C@@H]1O`: “z-scored log2 fold change” -0.0764 (binding, equilibrium dialysis LC-MS; 5 µM, thermostabilized A2AR-BRIL construct; reference: no-protein control, direction not given).
With `C[C@@H]1CCO[C@H]2Cn3cc(C(=O)NCc4ccc(F)cc4F)c(=O)c(O)c3C(=O)N12` the AUC(0-24) was 66600 ng·h/mL (population PK, post-hoc; children, 10 to <14 kg, plasma; oral, 20 mg dispersible tablet, steady state, geometric mean).
`O=C(Nc1ccc(OC(F)(F)Cl)cc1)c1cnc(N2CC[C@@H](O)C2)c(-c2ccn[nH]2)c1`: “triglyceride increase incidence” 33% (human patients; oral, dose not given; reference: records).
`C=CC[C@@H]1/C=C(\C)C[C@H](C)C[C@H](OC)[C@H]2O[C@@](O)(C(=O)C(=O)N3CCCC[C@H]3C(=O)O[C@H](/C(C)=C/[C@@H]3CC[C@@H](O)[C@H](OC)C3)[C@H](C)[C@@H](O)CC1=O)[C@H](C)C[C@@H]2OC` gave a plasma Mg2+ of 0.73 ± 0.07 mmol/L (Wistar Kyoto rat, male, plasma; ip, 0.5 mg/kg/day, day 28, at sacrifice).
For `CC#CC(=O)N1CCC[C@H]1c1nc(-c2ccc(C(=O)Nc3ccccn3)cc2)c2c(N)nccn12`, “cysteine adduct formation” read 79% (PBS; 100 µM, 23 h, pH 7.45, 37 °C, with: cysteine 10 mM).
`COc1ccccc1NC(=O)CSc1nnc(-c2ccccc2Cl)n1-c1ccccc1` gave a logD of 3.97 (octanol/buffer; pH 7.4).
`Cc1cc(-c2nccc3c2ccn3CC(=O)Nc2ccc(-c3cnccn3)cn2)ccn1` — result for “subjects with any TEAE”: 87.5% (human; 5 mg once daily, multiple ascending dose).

Some of these lines once more:
`Cc1cc(-c2nccc3c2ccn3CC(=O)Nc2ccc(-c3cnccn3)cn2)ccn1` — result for “subjects with any TEAE”: 87.5% (human; 5 mg once daily, multiple ascending dose).
